# Measured values gathered from unrelated publications.
# Each numbered part is a random draw from the data of one study; scales do not carry over between parts. Substitutions count along the parent as printed.

# Sample 1 — method: RNA Bind-n-Seq; molecule type: RNA; matrix: in vitro; tested at: 200 nM; setting: whole 134-nt RNA, ends assumed; together with: 150 mM KCl; reference: input library; direction: higher = stronger binding
# Target: Ras GTPase-activating protein-binding protein 1, full length (G3BP1, Homo sapiens, UniProt Q13283)
# UniProt Q13283, sequence (whole entry, looked up): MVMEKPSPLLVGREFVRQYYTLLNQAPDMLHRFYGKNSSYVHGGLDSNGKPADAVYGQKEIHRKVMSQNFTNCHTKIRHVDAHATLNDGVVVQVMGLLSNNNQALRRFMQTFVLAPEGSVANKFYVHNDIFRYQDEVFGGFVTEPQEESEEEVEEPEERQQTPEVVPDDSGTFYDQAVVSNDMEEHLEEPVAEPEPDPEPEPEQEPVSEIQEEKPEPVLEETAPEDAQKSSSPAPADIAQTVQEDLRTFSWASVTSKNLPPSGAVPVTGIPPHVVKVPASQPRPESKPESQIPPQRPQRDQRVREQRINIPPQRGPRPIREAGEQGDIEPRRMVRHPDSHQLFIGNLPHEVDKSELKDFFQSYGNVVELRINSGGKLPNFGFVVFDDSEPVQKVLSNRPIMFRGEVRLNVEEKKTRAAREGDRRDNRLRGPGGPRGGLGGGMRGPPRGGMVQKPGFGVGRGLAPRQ
# All sequences stand within: GGGAGUUCUACAGUCCGACGAUC … UGGAAUUCUCGGGUGUCAAGG
Oligonucleotide,log2 enrichment
UUGGCUACAAUGCAGAGACACAGAAACUACUAUGCAAGAAUGGGGAAACGCUGCUAGGAGCCGUGAACUUCUUUGUCUCUAGCAUCAACA,-1.02
UGGGAGGUGGAUUUUGUUUAUUUUUUUAGCUCAUUGCCAGGGGUGGGAAUUUUUUUUUAAUAUGUGUCAUGAAUAAAGUUGUUUUUGAAA,0.108
CACAGACAACCCGCACCCACACAGACACAGAGGGAAGGGGUUGGGAUGGGGACAGGGUGCACAGCAGGGCGGGGUAGGACCCCAGCCCCU,2.04
CCUCAAGUCCUGUGCUACACAUCGUAUGUACCGAAUCGGAAAGGAGGAAAGGAAAGUAUUAUGUUACGCCGUUCGGAUCUGCACUUCCAG,-0.0438
GAGGGAGUUUGCAGAUACCUCAGGAUUCGUGACAAUGCCUUUAAAGAUCCAGGAGAGAUGUUCAGCUACUAGGAACUGCUAGCAAGUAUA,-0.596
UGUCUUUCCUGGUGACUAGGAUGUCGUCGGAGGAGGACAAGAGCGUGGAGCAGCCGCAGCCGCCGCCACCACCCCCCGAGGAGCCUGGAG,-0.276
UGGCCCUGGUGGCAUGCGGGGAGGAAGAGGUGGCCUCAUGGAUCGUGGUGGUCCCGGUGGAAUGAUCAGAGGUGGCCGUGGUGGAGACAG,0.353
ACCAUGCAGGUGGGCAUCUUUGGGAAGUGGGGCAAGGGGGGGAUAGGGAGGGGGGUAACAAUUUGGGAACAGGUGGUCCCAGGUCGUUUC,1.07
CUCAAGUCCUGUGCUACACAUCGUAUGUACCGAAUCGGAAGGGAAGGGGAAGGAAAGUAUUAUGUUACGCCGUUCGGAUCUGCACUUCCA,-0.154

# Sample 2 — method: aptamer microarray, sandwich; molecule type: DNA with 2'F-ANA; matrix: in vitro; tested at: 200 nM; together with: Cy3 exosite-II aptamer, 400 nM; direction: higher = stronger binding; oligonucleotide: GGTTGGTGTGGTTGG
# Target: Prothrombin, mature alpha-thrombin (F2, Homo sapiens, UniProt P00734)
# Setting: whole 15-mer aptamer, many near background
Modification,mean fluorescence intensity
2'F-ANA at 1 2 3 4 9 11 13 14,53.5 a.u.
2'F-ANA at 1 2 7 8 9 10 11 13 15,55 a.u.
2'F-ANA at 1 3 4 5 7 8 9 10 11 13 15,116 a.u.
2'F-ANA at 1 2 3 7 10 11 13 15,78.4 a.u.
2'F-ANA at 2 4 7 9 12 13 15,368 a.u.
2'F-ANA at 5 9 11 13,60.3 a.u.
2'F-ANA at 1 8,262 a.u.
2'F-ANA at 4 5 6 9 10 12 13 14,87.9 a.u.
2'F-ANA at 1 4 5 8 9 10 13 14,50.6 a.u.
2'F-ANA at 1 3 5 10 11 12,47.7 a.u.
2'F-ANA at 3 4 5 7 8 10 11 13 14,46.7 a.u.
2'F-ANA at 5 9 15,141 a.u.
2'F-ANA at 2 3 4 7 8 9 10 11 13 14 15,161 a.u.
2'F-ANA at 1 2 5 6 7 8 10 13 14 15,54.5 a.u.
2'F-ANA at 4 5 6 10 15,58.7 a.u.
2'F-ANA at 1 5 6 8 11 15,54.4 a.u.
2'F-ANA at 4 6 7 9 10 11 15,91.2 a.u.
2'F-ANA at 1 2 3 5 7 9 10 11 12 15,51.5 a.u.
2'F-ANA at 1 3 4 5 7 8 10 11 12 13 14,53.4 a.u.
2'F-ANA at 1 3 4 5 6 7 9 10 11 13 14,49.9 a.u.
2'F-ANA at 1 3 4 6 10 11 13 14,55.8 a.u.
2'F-ANA at 2 3 4 7 10 13 15,220 a.u.

# Sample 3 — method: DHFR PCA, deep sequencing; matrix: yeast; together with: (+)-ABA 200 µM; reference: wild-type fitted maximum; direction: higher = stronger binding
# Target: ABI1, truncated, D143A, DHFR fusion (Arabidopsis thaliana)
# Setting: methotrexate growth selection, single substitutions
# Parent: PYL1, truncated, DHFR fusion (Arabidopsis thaliana); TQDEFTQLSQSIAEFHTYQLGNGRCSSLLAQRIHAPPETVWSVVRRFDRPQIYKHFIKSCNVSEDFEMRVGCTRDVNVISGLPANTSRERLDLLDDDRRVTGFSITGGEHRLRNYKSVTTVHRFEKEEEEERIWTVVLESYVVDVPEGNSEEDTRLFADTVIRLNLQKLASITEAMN; partner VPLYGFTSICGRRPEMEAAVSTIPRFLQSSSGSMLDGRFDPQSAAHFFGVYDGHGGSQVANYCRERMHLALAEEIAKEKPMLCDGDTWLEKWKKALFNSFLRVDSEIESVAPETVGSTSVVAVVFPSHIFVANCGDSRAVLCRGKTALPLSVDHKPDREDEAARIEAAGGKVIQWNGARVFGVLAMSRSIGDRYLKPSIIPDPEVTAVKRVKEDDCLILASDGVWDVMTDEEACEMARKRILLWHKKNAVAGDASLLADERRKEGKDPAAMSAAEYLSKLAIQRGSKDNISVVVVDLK
Substitution,relative binding score [%]
R32M,89.5
P83W,13.4
A175E,102
R99Y,111
V143W,-9.3
N149T,78.8
L8E,66.4
P146H,23.9
D153P,3.45
V43E,19.5
K116L,12.1
L164Q,96.3
K116S,104
V137R,-6.67
S117F,-11.8
D48W,36.2
T120S,107
L28W,78.1
E4A,92.9
R88C,103
E67R,98.6
H110S,54.9

# Sample 4 — target: CCNF, cyclin fold, Cln2 fusion (human); method: yeast growth competition, sequencing; matrix: yeast; setting: strong parent motif; reference: not given; direction: higher = stronger binding
# Parent: BRCA2 docking peptide (human); PSIKRNLLNEFDR
Substitution,normalised enrichment score
N9A,5.14
F11E,0.239
S2I,5.4
F11I,2.09
K4W,0.768
R13I,2.84
R13L,2.99
L8D,2.33
R13D,2.48
R13C,1.59
R5Q,0.443
L7T,0.42
R13Q,2.61
F11L,1.44
L8S,1.32
P1G,2.49
P1A,3.06
N6S,2.42
N9S,3.61
K4M,1.77
R5V,0.738
S2W,1.82
R5A,-0.0836
L7G,0.49
S2K,2.35

# For quick reference, copied from above (sample 4):
Substitution,normalised enrichment score
L8D,2.33
R13D,2.48
R13C,1.59
R5Q,0.443
L7T,0.42
R13Q,2.61
F11L,1.44
L8S,1.32
P1G,2.49
